Published values collected from several papers.
Parts stem from different laboratories: compare values within a part only. Positions count from the first letter of the parent shown.

Study 1
Target: ABI1, truncated, D143A, DHFR fusion (Arabidopsis thaliana)
Method: DHFR PCA, deep sequencing
Sample: yeast
Notes: methotrexate growth selection, single substitutions
Together with: (+)-ABA 58 µM
Relative to: wild-type fitted maximum
Reading: higher = stronger binding
Starting sequence: PYL1, truncated, DHFR fusion (Arabidopsis thaliana); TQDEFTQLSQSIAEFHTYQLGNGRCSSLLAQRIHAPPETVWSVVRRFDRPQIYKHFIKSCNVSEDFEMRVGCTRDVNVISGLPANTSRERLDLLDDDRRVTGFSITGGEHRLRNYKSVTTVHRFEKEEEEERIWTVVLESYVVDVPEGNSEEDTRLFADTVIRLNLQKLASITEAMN; partner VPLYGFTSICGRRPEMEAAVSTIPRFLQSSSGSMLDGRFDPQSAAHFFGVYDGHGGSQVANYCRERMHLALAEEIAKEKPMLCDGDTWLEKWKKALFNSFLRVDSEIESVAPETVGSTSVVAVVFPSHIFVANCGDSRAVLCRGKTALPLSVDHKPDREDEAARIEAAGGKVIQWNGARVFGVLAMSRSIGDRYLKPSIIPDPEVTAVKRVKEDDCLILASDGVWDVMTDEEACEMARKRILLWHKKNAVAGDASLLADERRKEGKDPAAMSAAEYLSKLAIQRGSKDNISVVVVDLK
Change | relative binding score [%]
V118P | 2.28
H122C | 43.7
R49F | 54.1
P37H | 31.6
T86I | 51.1
L166K | -3.91
S59V | 62
S42R | 89.7
I133E | 103
L93T | 90
M176C | 73.5
E129C | 90.3
V137N | 2.65
Y18I | 67.4

Study 2
Target: Fragile X messenger ribonucleoprotein 1, C-terminal low-complexity region (Fmr1, Mus musculus, UniProt P35922)
Method: RNA Bind-n-Seq
Molecule type: RNA
Sample: in vitro
Concentration: 200 nM
Notes: whole 134-nt RNA, ends assumed
Together with: 150 mM LiCl
Relative to: input library
Reading: higher = stronger binding
Each molecule: 7-deaza-guanosine replaces G
Constant ends, left off below: GGGAGUUCUACAGUCCGACGAUC … UGGAAUUCUCGGGUGUCAAGG
Sequence | log2 enrichment
CACAGACAACACGCACCCACACAGACACAGAGGGAAGGGGUUGGGAUGGGGACAAAAUGCACAGCAGGGCGGGGUAGGACCCCAGCCCCU | -0.121
UCCUGUGCUACACAUCGUAUGUACCGAAUCGGGGUUUGGGGAAAAAGGGGUUUUUGGGGAAAGUAUUAUGUUACGCCGUUCGGAUCUGCA | -0.678
UUCCUCAAGUCCUGUGCUACACAUCGUAUGUACCGAAUCGGAGGAGGAGGAAAGUAUUAUGUUACGCCGUUCGGAUCUGCACUUCCAGCA | -2.79
AAGUCCUGUGCUACACAUCGUAUGUACCGAAUCGGUUUUUGGAAAAAAAGGAAAGGAAAGUAUUAUGUUACGCCGUUCGGAUCUGCACUU | -2.81
UCCUGUGCUACACAUCGUAUGUACCGAAUCGGGGUUUUUGGGGAAAAAAAGGGGUGGGGAAAGUAUUAUGUUACGCCGUUCGGAUCUGCA | -1.03
UAACUUUAGAGGAGGAUCUGAUGGAUAUGGCAGUGGACGUGGAUUUGGGGAUGGCUAUAAUGGGUAUGGAGGAGGACCUGGGGGUGGCAA | 0.25
ACCAUGCAGGUGGGCAUCUUUGGGAAGUGGGGCAAGGGGGGGAUAGGGAGGGGGGUAACACUUUGGGAACAGGUGGUUCCAGGUCGUUUC | 1.32
UAACUUUAGAGGAGGAUCUGAUGGAUAUGGCAGUGGACGUGGAUUUGGGGAUGGCUAUAAUGGGUAUGGAGGAGGACCUGGAGCUGGCAA | 0.118
UUAAAGAAAUGUCCACAAGUAACUUUGAAUCAUCUCCUGAAGUAGAAGAAAGGCCUGCUGUGUCUUUGACUCUUGAUCAGAGCCAGUCAC | -1.18
CAAGUCCUGUGCUACACAUCGUAUGUACCGAAUCGGGGAAGGGGAAGGGGAAGGGGAAAGUAUUAUGUUACGCCGUUCGGAUCUGCACUU | -0.00729
UCCUCAAGUCCUGUGCUACACAUCGUAUGUACCGAAUCGGGCGGCGGCGGGGAAAGUAUUAUGUUACGCCGUUCGGAUCUGCACUUCCAG | 0.963

Study 3
Target: CCNB2, cyclin fold, Cln2 fusion (human)
Method: yeast growth competition, sequencing
Sample: yeast
Notes: weak parent motif
Relative to: not given
Reading: higher = stronger binding
Starting sequence: PPP1R3F docking peptide (human); VAPRRVLFADEAL
Change | normalised enrichment score
L13A | -0.37
F8A | -0.175
V6A | 0.0125
L7A | 0.214
R5K | 0.0308
E11A | 0.363

Study 4
Target: Hepatocyte nuclear factor 3-alpha (Foxa1, Mus musculus, UniProt P35582, residues 1-468, full length assumed)
Method: EMSA with sequencing
Molecule type: double-stranded DNA, one strand shown
Sample: in vitro
Concentration: 10 and 20 nM
Notes: whole designed probe, mean of two concentrations, ends assumed
Relative to: negative control set to 0
Reading: higher = stronger binding
Constant ends, left off below: GTGAGCGGTGCCCATTGATGGGGAAC … TTTCACTGGGATCGTGGGGAC
Construct (chain): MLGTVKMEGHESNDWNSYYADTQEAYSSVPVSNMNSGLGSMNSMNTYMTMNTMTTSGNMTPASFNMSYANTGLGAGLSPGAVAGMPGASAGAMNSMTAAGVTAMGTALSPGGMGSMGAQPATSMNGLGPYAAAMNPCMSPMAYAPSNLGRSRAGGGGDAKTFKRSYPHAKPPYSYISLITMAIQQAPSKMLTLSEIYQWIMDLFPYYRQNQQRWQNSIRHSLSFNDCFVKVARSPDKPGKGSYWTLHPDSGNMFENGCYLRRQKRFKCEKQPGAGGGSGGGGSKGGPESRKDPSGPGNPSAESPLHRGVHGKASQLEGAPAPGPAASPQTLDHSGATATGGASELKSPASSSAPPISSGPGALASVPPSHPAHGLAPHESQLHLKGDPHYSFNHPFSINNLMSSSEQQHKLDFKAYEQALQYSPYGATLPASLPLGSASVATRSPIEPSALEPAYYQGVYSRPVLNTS
Sequence | normalised bound fraction [ratio]
TCTGTAGCCTTTGCAAATAACCTTTTTGAACAAAAACGGCAATGGCTCATTCCAAACCCGATCAAAGAGGTATGCATGACTCACAGCCACTAAATAAACATTGATGCCTGATGGCAGTAATATGGCTATTTATATTCAGAGCCTGATTTAACCAGTGGCATTCCTGTAATAAGATAATAAGCATGAGCTGTTT | 0.483
ATCTTCCCCCTCTTCCTTGCCCCACCAGCTCACCTTCCCGGGTTATTTGCAGATAGGAAAATAAATAAAGCCGGCATTCGTTAACCCTCTTCACGCGCATACTGCTGTTTGCTCTGCATGAATCATGGTCCTTACGCGAGGCGTGGCTCCGGGAGAGCAAAGCACCGTGTCAGGCGCATGATCCGGGCTCGCC | 0.35
TCCACTGGGATAAATTTATTTCATAAATGTCATTTTCTAAAGATAACTTCTTGGTCTCATACTTGGTCTCCAAATCTAAAATAAAACAAGAAAGCAAACACATGCTGTTTTCTTTTACTAAAAGAAGCAACATTTCTAATGTAGAAATAAAAGACAACAAAAGTAATCCTTAACCAAAACTCTAAAATATTGT | 0.124
TCTACACCAATGTCACACTGCCAAATCTCAAAGAAGATTTGGTTGTCACCACTTAAATCCCCTCATGAATGTTCTGGAAAAACTCCCTGCCCTTGTTGACATAGCCTCTCTGCATAAAACTCCTATCATATTCCCACTCCTAAATGTCTCCAAAGCCAACTTTGTCACTTACTGATTAATACCTACCATCTCC | 0.27
TTGAAATACTATAATATAAATTCTAATGAAATTTGAAATCATGTGGGCAAGTTAATTAAAAACAAAAGAATAAATGCTTGTCCATATTGCTTTATGTTTACATAGTTCATCTGGTAGAATAAATATTATTTTGAAAAAAGAAGGGCTCTTAGTGGGAAATACAATACCAAAGTTTAAAACATACTAGTTAAAA | 0.496
GGGTCAGAGGAGCTTACAGTGAGTGGACAAAGCAATTTTAATCCTGCCTTACTAATTTCGTAGGATATTCACCTTTCTGAAGTCACACAAATGTAATCTTGAAAAATATTCATTATAAAAGAAACCTAGGGAAAGTGCAATCTCTTGAAGAATGTGCATTTTTTACAATTGCATTTGTTTTATTCAAGCGCTT | -0.0559
GGTGACAAACCCAAGGCTTGTGGGCTCTGCACACCCTCCACAGTCTTTTGTGTGGCCTGTTGGCAGTTTGATTTTTACGTTTTTGGGGGATGTAGATTGCTTTGTCTTTAAGTTTAGATGTCCGGGTTTTGTTGAGGAAAAAGAAACCCACACCAGATTTACAGTCCCCTAGATCCCCCATCTCATTCTGTGC | -0.0858
TTTTCATTTACTCTTGTTTTGTGTTTGAGTATAGACAGCTTTTCCCATCCTCCATCAGGGTCATTGTCCCACCTTCTCTGACTCACTTATTGTGTCAACAGAATTAAAAGAGCAGCCGGTGGACGTGTGTAGAGGCTGAAGGAGAGCTGTGTTGCTAGCTTTGTATTTGAACGGTTCGTACACAAACAGTTCT | 0.268

Study 5
Target: RNA binding protein fox-1 homolog 2, RRM domain, GST-SBP tag (RBFOX2, Homo sapiens, UniProt O43251-10, residues 100-194)
Method: RNA Bind-n-Seq
Molecule type: RNA
Sample: in vitro
Concentration: 365 nM
Notes: natural RNA segment, single round, ends assumed
Relative to: no-protein control
Reading: higher = stronger binding
Constant ends, left off below: GGGAGUUCUACAGUCCGACGAUC … UGGAAUUCUCGGGUGCCAA
Residues (chain): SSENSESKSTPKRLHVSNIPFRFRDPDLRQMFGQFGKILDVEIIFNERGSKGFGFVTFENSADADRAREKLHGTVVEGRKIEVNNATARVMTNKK
Sequence | RBNS enrichment (R)
UGGGAAUCUUCAGAACCCCCCUGUAAGAGACAGACAUGAGAGACAAGCAUCUUCUUUCCCCCGCAAGUCCAUUUUAUUUCCUUCUUGUGCUGCUCUGGAAGAGAGGCAGU | 3.26
AUCUCUGUGAUAGAUUAUAUUUAUCCUAAUCUGUUGAUACCUCUGUUAAUUUGUUUUAAGAGAAUUAUAUUUUUUGGAAUUUACAGAGAAUUGCAUUCAUGGCUUUCAAU | 0.435
UACCUGUGUGGCUAUCCUCAUCUGCCUGCCCUCUCAUCCCUCGGCUAGAAUGAUGUACUCUACUUUCCCAAUAAGGUAGAAAUUUGGAAUCCAACGGAAUAUAAUCAGUU | 0.503
CUUGACUGACCCGUGCUCCUGGAGGAUCCCCAGUUGUGUCAAUGAUAGAUAGUUUAGUCAACAUCCCCAUCUUGUGUCAAUCUGGACUCAGAGGAAGGAGUCAGCAUCCU | 0.43
AUCUUGAAACAAAGUAAGAAUUCUGAUUCCCAAAAAUAACAAAUUUAAGUGUAUACUUUAGCAGGUGUGUACUAAUUACCAGUAACUUCAACACAAGCAAAGCAGGUUAC | 0.427
GGGUUCAGCUUGGAGGUGACACCUCUUUGGUCUACAUUUGUACAAUGGAUGCAUCAAGUUUCUAAAUUUUAUUUCCUGCCUAAAGAAACCAAAUUGUCCCUCAGCAUCCU | 0.559
GUAUAUAAGUGUGAAUCUCCUAUAAUGAUGGAAGAAGAGGUUCUCUUGUCUUAGAUAGAAAAGAGCCUUCUCCAAGAGCAAUGUCAAAACUUGGGCUGUCAUCUUUGAGC | 1.42
AGGAACUGGUGUAAGUCCUCCAGACACAUCCCUGUGUAAGGAAGCCAGGCACUGUUUCUCUGAGUUUUGUUGUUUUGUUUUCUUUGAAGGCUACUGAGCCCAAGCUUCCC | 0.32
CGGGGGGAGGAUGCCAGCAGCCUGCCUAUGGCUCCAGCUGUGCUGUGGCCCAGCAGCAUGGCCUGCAUCUGGAAGGACACAGGUUGCCAGAGCCCCUGGCACAACUCUAG | 1.26
UCUGGGGACAGCAUACACUUCUUCCCCAGCUCAGUAAUGGGUGAAGUCACUUCCGGAGGUGGUCACCUCAUAGAAUGAACAUGAUUGGUUACUGAGGGAGCCAGGCUCUG | 0.551
AUCUGAUUUGUAAUUACAAUUUUGGAAUUCUCUGUUUUAGUUGCUGAGGCCUGAGUUUUCUGGCUCUUAAAGCAUAGAUCAUUUCACCUGAUGUUUUUGAAGCAUCCUAA | 0.57
UGACAGCACUAACCAGACCUCCAGCCACUCACAGCUCUUUUUAAAAAACAGCUUCAAAAUAUGCAGCAAAAACCAAUACAACAAAACGAGUGGCACGAUUUAUUUCAAAC | 0.551

Some of these lines once more (study 2):
Sequence | log2 enrichment
UUCCUCAAGUCCUGUGCUACACAUCGUAUGUACCGAAUCGGAGGAGGAGGAAAGUAUUAUGUUACGCCGUUCGGAUCUGCACUUCCAGCA | -2.79
AAGUCCUGUGCUACACAUCGUAUGUACCGAAUCGGUUUUUGGAAAAAAAGGAAAGGAAAGUAUUAUGUUACGCCGUUCGGAUCUGCACUU | -2.81
UCCUGUGCUACACAUCGUAUGUACCGAAUCGGGGUUUUUGGGGAAAAAAAGGGGUGGGGAAAGUAUUAUGUUACGCCGUUCGGAUCUGCA | -1.03
UAACUUUAGAGGAGGAUCUGAUGGAUAUGGCAGUGGACGUGGAUUUGGGGAUGGCUAUAAUGGGUAUGGAGGAGGACCUGGGGGUGGCAA | 0.25
ACCAUGCAGGUGGGCAUCUUUGGGAAGUGGGGCAAGGGGGGGAUAGGGAGGGGGGUAACACUUUGGGAACAGGUGGUUCCAGGUCGUUUC | 1.32
UAACUUUAGAGGAGGAUCUGAUGGAUAUGGCAGUGGACGUGGAUUUGGGGAUGGCUAUAAUGGGUAUGGAGGAGGACCUGGAGCUGGCAA | 0.118
